# Experimental data of several laboratories.
# Each line is one published result; not all experiments were run side by side. ± marks the error that the study gave.
# PTGS2: Prostaglandin G/H synthase 2 (PTGS2, Homo sapiens, UniProt P35354)
# Chain of UniProt P35354 (whole entry, looked up): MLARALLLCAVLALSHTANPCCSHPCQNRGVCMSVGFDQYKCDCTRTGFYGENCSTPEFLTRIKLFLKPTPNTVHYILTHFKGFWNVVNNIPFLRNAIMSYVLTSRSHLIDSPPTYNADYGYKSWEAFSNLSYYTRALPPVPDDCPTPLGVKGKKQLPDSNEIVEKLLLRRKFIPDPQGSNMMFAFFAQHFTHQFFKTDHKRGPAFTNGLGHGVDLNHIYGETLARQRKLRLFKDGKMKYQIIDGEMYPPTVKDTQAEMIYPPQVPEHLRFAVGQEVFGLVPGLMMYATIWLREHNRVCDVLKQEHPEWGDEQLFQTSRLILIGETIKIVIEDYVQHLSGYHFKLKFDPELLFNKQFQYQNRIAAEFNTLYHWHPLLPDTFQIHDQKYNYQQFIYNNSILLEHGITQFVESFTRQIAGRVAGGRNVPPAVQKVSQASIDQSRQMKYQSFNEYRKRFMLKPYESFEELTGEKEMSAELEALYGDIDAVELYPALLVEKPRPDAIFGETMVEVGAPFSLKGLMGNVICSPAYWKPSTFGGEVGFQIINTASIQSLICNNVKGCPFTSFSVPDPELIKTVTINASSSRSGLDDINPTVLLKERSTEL
# DRD2: D(2) dopamine receptor (DRD2, Homo sapiens, UniProt P14416)
# Chain of UniProt P14416 (whole entry, looked up): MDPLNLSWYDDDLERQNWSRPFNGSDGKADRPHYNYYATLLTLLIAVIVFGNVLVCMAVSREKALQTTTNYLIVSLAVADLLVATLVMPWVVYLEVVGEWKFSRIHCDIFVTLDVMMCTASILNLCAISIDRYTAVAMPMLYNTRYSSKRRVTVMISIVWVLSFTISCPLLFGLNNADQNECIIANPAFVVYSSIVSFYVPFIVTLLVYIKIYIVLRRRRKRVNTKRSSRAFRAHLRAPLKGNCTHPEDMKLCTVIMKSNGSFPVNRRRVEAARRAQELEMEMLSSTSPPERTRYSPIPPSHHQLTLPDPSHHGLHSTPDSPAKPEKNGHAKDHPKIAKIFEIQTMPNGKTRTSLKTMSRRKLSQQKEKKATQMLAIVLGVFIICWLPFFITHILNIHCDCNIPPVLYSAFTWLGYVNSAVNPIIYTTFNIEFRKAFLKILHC
# CDK6 with cyclin D1: Cyclin-dependent kinase 6, with cyclin D1 (CDK6, Homo sapiens, UniProt Q00534)
# Chain of UniProt Q00534 (whole entry, looked up): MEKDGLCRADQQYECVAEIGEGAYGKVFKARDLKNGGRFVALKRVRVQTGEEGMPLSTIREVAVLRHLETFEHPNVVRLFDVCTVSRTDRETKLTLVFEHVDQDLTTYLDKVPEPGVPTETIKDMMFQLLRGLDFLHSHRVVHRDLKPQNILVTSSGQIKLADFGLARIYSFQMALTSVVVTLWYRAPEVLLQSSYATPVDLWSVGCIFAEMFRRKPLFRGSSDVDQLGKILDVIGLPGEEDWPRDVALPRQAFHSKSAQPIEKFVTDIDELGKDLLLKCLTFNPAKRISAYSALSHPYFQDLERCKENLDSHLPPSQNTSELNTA
# MCL1: Induced myeloid leukemia cell differentiation protein Mcl-1 (MCL1, Homo sapiens, UniProt Q07820)
# DNA polymerase catalytic subunit: DNA polymerase catalytic subunit (Human cytomegalovirus, UniProt P08546)
# Chain of UniProt P08546 (whole entry, looked up): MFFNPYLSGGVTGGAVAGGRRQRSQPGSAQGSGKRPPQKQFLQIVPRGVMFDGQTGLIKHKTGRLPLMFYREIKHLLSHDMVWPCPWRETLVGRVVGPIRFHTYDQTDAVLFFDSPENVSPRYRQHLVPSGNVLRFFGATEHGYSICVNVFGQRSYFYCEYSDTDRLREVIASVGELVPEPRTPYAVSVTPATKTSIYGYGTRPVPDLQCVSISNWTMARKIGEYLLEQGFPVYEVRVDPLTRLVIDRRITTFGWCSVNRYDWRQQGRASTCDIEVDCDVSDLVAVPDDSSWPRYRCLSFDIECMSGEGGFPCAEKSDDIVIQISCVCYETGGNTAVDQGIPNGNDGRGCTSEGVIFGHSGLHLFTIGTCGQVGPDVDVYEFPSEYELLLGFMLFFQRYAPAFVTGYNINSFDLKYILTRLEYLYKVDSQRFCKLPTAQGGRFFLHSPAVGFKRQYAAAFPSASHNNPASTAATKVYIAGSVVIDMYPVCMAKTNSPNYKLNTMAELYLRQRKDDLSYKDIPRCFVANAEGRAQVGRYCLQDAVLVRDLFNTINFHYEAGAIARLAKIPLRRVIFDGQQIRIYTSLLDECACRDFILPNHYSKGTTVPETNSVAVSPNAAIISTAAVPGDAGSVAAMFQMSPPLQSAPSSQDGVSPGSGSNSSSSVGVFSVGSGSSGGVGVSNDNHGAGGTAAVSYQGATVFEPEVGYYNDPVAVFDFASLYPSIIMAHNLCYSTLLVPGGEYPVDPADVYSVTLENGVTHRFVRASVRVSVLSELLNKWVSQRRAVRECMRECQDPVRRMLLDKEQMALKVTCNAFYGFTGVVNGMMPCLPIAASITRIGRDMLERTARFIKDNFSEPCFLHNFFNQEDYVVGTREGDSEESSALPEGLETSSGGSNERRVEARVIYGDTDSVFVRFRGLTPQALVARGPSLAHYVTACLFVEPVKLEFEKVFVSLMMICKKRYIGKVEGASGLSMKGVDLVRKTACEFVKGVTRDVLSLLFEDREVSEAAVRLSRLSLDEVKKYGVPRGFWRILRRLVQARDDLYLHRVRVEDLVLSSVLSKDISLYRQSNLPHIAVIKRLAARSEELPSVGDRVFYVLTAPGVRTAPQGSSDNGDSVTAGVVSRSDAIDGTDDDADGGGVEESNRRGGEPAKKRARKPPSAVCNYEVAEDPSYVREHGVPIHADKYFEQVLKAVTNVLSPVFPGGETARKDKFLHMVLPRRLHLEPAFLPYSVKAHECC
# CSNK1E: Casein kinase I isoform epsilon (CSNK1E, Homo sapiens, UniProt P49674)
# Chain of UniProt P49674 (whole entry, looked up): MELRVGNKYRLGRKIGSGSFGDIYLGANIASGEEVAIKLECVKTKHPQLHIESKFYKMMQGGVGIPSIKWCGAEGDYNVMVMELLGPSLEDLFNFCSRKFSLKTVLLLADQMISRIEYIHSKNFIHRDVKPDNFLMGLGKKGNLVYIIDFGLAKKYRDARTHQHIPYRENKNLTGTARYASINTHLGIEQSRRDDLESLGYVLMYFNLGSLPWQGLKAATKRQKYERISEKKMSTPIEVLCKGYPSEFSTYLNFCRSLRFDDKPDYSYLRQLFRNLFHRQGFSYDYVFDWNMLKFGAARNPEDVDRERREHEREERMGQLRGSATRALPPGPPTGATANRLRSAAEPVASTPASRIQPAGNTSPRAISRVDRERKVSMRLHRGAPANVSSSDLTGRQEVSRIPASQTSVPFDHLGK
# NTRK2: BDNF/NT-3 growth factors receptor (NTRK2, Homo sapiens, UniProt Q16620)
# Chain of UniProt Q16620 (whole entry, looked up): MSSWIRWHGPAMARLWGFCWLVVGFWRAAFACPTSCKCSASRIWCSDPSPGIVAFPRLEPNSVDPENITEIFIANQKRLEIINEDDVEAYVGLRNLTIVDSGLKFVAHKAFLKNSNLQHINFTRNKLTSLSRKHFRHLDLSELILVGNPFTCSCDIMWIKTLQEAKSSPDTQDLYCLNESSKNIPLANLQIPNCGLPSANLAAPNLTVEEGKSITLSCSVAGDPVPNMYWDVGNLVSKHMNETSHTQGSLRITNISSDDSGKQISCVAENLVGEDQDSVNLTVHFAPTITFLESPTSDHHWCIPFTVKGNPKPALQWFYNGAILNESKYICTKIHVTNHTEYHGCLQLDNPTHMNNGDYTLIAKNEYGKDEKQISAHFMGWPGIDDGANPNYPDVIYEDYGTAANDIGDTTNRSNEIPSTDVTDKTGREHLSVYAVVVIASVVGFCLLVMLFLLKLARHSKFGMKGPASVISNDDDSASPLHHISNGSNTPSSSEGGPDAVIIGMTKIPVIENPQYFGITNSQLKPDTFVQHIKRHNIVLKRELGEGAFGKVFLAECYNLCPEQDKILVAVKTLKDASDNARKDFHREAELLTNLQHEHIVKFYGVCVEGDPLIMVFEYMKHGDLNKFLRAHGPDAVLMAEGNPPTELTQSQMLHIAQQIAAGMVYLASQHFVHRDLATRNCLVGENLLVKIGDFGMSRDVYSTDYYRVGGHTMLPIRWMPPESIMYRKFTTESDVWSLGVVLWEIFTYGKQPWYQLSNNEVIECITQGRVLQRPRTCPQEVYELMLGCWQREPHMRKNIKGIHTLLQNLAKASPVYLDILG
# TAF1L BD2: Transcription initiation factor TFIID subunit 1-like, BD2 (TAF1L, Homo sapiens, UniProt Q8IZX4)
# KRAS with SOS1: GTPase KRas, with SOS1 (KRAS, Homo sapiens, UniProt P01116)
# Lysine--tRNA ligase, cytoplasmic: Lysine--tRNA ligase, cytoplasmic (Arabidopsis thaliana, UniProt Q9ZPI1)
# Chain of UniProt Q9ZPI1 (whole entry, looked up): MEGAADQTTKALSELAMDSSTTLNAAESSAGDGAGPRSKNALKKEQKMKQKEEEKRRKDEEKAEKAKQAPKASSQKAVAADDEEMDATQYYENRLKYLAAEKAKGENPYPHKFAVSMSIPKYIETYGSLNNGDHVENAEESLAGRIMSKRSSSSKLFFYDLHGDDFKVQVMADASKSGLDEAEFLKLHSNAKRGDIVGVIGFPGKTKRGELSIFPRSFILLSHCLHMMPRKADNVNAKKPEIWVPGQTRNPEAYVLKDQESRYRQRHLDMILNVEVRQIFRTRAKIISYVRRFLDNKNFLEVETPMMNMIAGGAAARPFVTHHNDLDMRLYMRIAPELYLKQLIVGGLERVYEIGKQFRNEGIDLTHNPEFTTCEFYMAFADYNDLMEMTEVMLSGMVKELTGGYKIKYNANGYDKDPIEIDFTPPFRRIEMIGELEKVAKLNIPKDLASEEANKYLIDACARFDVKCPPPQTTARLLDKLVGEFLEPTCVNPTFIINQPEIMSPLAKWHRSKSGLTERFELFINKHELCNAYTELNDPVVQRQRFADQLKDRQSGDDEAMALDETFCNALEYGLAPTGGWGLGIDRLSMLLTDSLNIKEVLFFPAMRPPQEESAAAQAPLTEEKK
# 60 kDa heat shock protein, mitochondrial with HSP10: 60 kDa heat shock protein, mitochondrial, with HSP10 (Homo sapiens, UniProt P10809)
# SIRT5: NAD-dependent protein deacylase sirtuin-5, mitochondrial (SIRT5, Homo sapiens, UniProt Q9NXA8)
# Chain of UniProt Q9NXA8 (whole entry, looked up): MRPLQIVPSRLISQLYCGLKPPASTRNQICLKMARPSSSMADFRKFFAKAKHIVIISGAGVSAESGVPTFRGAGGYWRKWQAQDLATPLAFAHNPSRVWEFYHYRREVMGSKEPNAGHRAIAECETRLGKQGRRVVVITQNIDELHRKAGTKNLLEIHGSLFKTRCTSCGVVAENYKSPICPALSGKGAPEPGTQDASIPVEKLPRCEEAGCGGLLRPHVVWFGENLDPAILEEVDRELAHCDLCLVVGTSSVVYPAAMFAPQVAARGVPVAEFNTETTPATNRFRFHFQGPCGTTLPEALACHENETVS
Structure (SMILES),target,assay,test system,setting,IC50 [nM]
Cc1nc2ccc(Br)cc2c(=O)n1/N=C/c1ccc(C(=O)O)cc1,"XDH (Bos taurus, UniProt P80457)","enzyme activity, inhibitor",,,42200 ± 2560
CN1C(=N)NC(=O)/C1=C/c1ccc(S(C)(=O)=O)cc1,PTGS2,inhibitor,,,310
Cc1[nH]c(C)c(S(=O)(=O)Nc2ccc([S+](C)[O-])c(Cl)c2)c1C(=O)N1CCC(F)(F)C1 (stereo not drawn),DRD2,,,,> 100000
CN(C)C(=O)c1cc2cnc(Nc3cc(C(F)(F)F)c(-c4cccc5c(=O)cc(N6CCOCC6)oc45)cn3)nc2n1C1CCCC1,CDK6 with cyclin D1,"inhibitor, HotSpot radiometric kinase",,"together with: 10 µM ATP, cyclin D1",> 10000
COc1ccccc1C[C@@H](Oc1cccc2cc(-c3ccc(F)cc3)n(-c3ccc(OCCN4CCN(C)CC4)c(Cl)c3C)c12)C(=O)O,MCL1,,,,47
O=C(Nc1cccnn1)N1CCC(=Cc2cccc(Oc3ccc(C(F)(F)F)cn3)c2)CC1,"FAAH (Homo sapiens, UniProt O00519)","enzyme activity, inhibitor",COS cells expressing human FAAH,3 h,3.4
CC1(F)CN(C(=O)Cn2c(=O)c(C(=O)NCc3ccc(Cl)cc3)cc3nc(N4CCN(CC(=O)O)C4=O)cnc32)C1,DNA polymerase catalytic subunit,enzyme activity,,single determination,224
Oc1c(-c2nc(-c3ccc(F)cc3)c(-c3ccncc3)[nH]2)ccc2ccccc12,CSNK1E,inhibitor,,,1630 ± 318
CCCCCCCCCCCCCC(C)=O,"uncharacterized protein (Spodoptera exigua, UniProt F1CEY0)","binding, fluorescence competitive binding",,together with: 1-NPN 2.0 µM,11100
O=C(Nc1cccc(OS(=O)(=O)c2ccc(Cl)cc2)c1)c1ccc2ncccc2c1,"P2X purinoceptor 7 (P2RX7, Homo sapiens, UniProt Q99572)","calcium mobilization, antagonist",MCF7 transfected with P2RX7,together with: 100 µM BzATP,813 ± 83
COc1cc2nccc(Oc3ccc(NC(=O)c4cc5c(n(-c6ccccc6)c4=O)CCCC5=O)nc3)c2cc1OC,NTRK2,"cell viability, CellTiter-Glo",Ba/F3 expressing recombinant kinase,48 h,15.8
Cc1cc2c(cc1N1C(=O)c3cccc4c(N5CCN(CCN(C)C)CC5)ccc(c34)C1=O)n(C)c(=O)n2C,TAF1L BD2,HTRF,,GST-tagged protein,98.7
CN1CCN(c2cnc3c(cc(C(=O)NCc4ccc(Cl)cc4)c(=O)n3CC(=O)N3CC(C)(F)C3)n2)C1=O,DNA polymerase catalytic subunit,enzyme activity,,at least duplicate,310
C=CC(=O)Nc1cccc(Oc2nc(Nc3ccc(N4CCN(C)CC4)cc3)nc3ccoc23)c1,"Phosphatidylinositol 4,5-bisphosphate 3-kinase catalytic subunit delta isoform, with p85alpha (PIK3CD, Homo sapiens, UniProt O00329)",,,,637
C[C@H]1CNCCCN1c1nccc(-c2noc([C@@]3(C)CCCc4sc(N)c(C#N)c43)n2)n1,KRAS with SOS1,"KRAS wild type-SOS1 interaction, inhibitor, AlphaScreen",,geometric mean,29
Nc1nsc(C(=O)NCC2(F)CCCCC2)c1Cl,"Lysine--tRNA ligase, cytoplasmic","enzyme activity, inhibitor",,,1260
Cc1[nH]nc(C(F)(F)F)c1Cc1sc2c(c1C(=O)N1C[C@](C)(O)CO1)c(=O)n(C)c(=O)n2C(C)C,"SLC16A1 (Homo sapiens, UniProt P53985)","L-lactate transport, fluorescence",yeast expressing MCT1,together with: L-lactate,68
CC1=NOC(CNC(=O)c2cnc3c(c(C)nn3C)c2Cl)C1 (stereo not drawn),"60 kDa heat shock protein, mitochondrial with HSP10",ATPase activity,,"30 min, together with: HSP10",> 250000
Cn1c(=O)n(C)c2cc(N3C(=O)c4cccc5cccc(c45)C3=O)c(Br)cc21,TAF1L BD2,HTRF,,GST-tagged protein,463
COc1cc(C(F)(F)F)c(Cl)cc1NS(=O)(=O)c1c(C)[nH]c(C)c1C(=O)N1CCC(F)(F)C1,DRD2,,,,> 100000
CN(C)C(=O)c1cc2cnc(Nc3cc(C(=O)O)cc(-c4cccc5c(=O)cc(N6CCOCC6)oc45)c3)nc2n1C1CCCC1,CDK6 with cyclin D1,"inhibitor, HotSpot radiometric kinase",,"together with: 10 µM ATP, cyclin D1",> 10000
COc1cc2c(c(OC)c1OC)-c1c(cc3c(c1OC)OCO3)C[C@H](C)[C@](C)(O)[C@H]2OC(=O)c1ccccc1,"Cytochrome P450 3A5 (CYP3A5, Homo sapiens, UniProt P20815)","midazolam 1'-hydroxylation, inhibitor, recombinant enzyme",,"15 min, pH 7.4, together with: midazolam 5 µM",88 ± 40
Cc1[nH]c(C)c(S(=O)(=O)Nc2ccc(C(F)(F)F)c(Cl)c2)c1C(=O)N1CC(F)(F)C1,DRD2,,,,> 100000
Cc1ccc2[nH]nc(-c3nnc(Nc4ccc(Cl)cc4)s3)c2c1,α-glucosidase,"enzyme activity, inhibitor",,"pH 6.8, together with: p-nitrophenyl-α-D-glucopyranoside",4230 ± 980
C[C@H]1CN(C)CCCN1c1nccc(-c2noc([C@@]3(C)CCCc4sc(N)c(C#N)c43)n2)n1,KRAS with SOS1,"KRAS wild type-SOS1 interaction, inhibitor, AlphaScreen",,geometric mean,30
COc1ccccc1C[C@@H](Oc1cccc2oc(-c3ccc(F)cc3)c(-c3ccc(OCCN4CCN(C)CC4)c(Cl)c3C)c12)C(=O)O,MCL1,,,,820
NS(=O)(=O)c1ccc(-n2nc(-c3ccc(C(F)(F)F)cc3O)nc2-c2ccccc2O)cc1,PTGS2,inhibitor,,,540
Cc1cc2c(cc1N1C(=O)c3cccc4c(N(C)CCN5CCCC5)ccc(c34)C1=O)n(C)c(=O)n2C,TAF1L BD2,HTRF,,GST-tagged protein,32.7
C[C@@H]1CN(C(=O)c2ccc(NC(=O)c3cc(O[C@H](C)c4c(Cl)ccc(F)c4Cl)c(N)nn3)cc2)C[C@H](C)N1,NTRK2,cell-based,,,241
C=Cc1c(N)nsc1C(=O)NCC1CCCCC1,"Lysine--tRNA ligase, cytoplasmic","enzyme activity, inhibitor",,,7940
Cc1cc([C@@H](C)Nc2ccccc2C(=O)O)c2nc(N3CCC(F)(F)CC3)c(C#N)c(=O)n2c1,"Phosphatidylinositol 4,5-bisphosphate 3-kinase catalytic subunit delta isoform, with p85 alpha (PIK3CD, Homo sapiens, UniProt O00329)","enzyme activity, inhibitor, ADP-Glo",,together with: 10 µM ATP,> 10000
CN(C)C(=O)c1cc2cnc(Nc3ccc(-c4ccc5c(=O)cc(N6CCOCC6)oc5c4)c(F)c3)nc2n1C1CCCC1,CDK6 with cyclin D1,"inhibitor, HotSpot radiometric kinase",,"together with: 10 µM ATP, cyclin D1",30.4
CC(=O)C1=C(O)C(=O)N(c2ccc(Br)cc2F)C1C1CCCCC1 (stereo not drawn),"CCR1 (Homo sapiens, UniProt P32246)",inverse agonist,U2OS expressing CCR1,no CCL3,166
C[C@H]1CNCCN1c1cccc(-c2noc([C@@]3(C)CCCc4sc(N)c(C#N)c43)n2)n1,"GTPase KRas, with SOS1 (KRAS, Homo sapiens, UniProt P01116, C118S/G12V)","KRAS G12V-SOS1 interaction, inhibitor, AlphaScreen",,geometric mean,16
Cc1ccc(NS(=O)(=O)c2[nH]nc(C)c2C(=O)N2CCC(F)(F)C2)cc1Cl,DRD2,,,,> 100000
COc1ccc(-c2coc3cc(O)cc(O)c3c2=O)cc1,"HSD3B1 (Homo sapiens, UniProt P14060)","DHEA metabolism, inhibitor",VCaP,together with: [3H]-DHEA,224
Cc1[nH]c(C)c(S(=O)(=O)Nc2ccc(C(F)(F)F)c3cccnc23)c1C(=O)N1CCC(F)(F)C1,DRD2,,,,> 100000
O=C(O)CCNC(=S)NCCCC[C@H](NC(=O)CCC(=O)NCCOCCOCCCCCCCl)C(=O)N[C@@H](Cc1c[nH]c2ccccc12)C(=O)NC1CCC1,SIRT5,"enzyme activity, inhibitor",,,52 ± 4
COc1ccc(S(=O)(=O)N(CC(=O)NO)CC(C)C)cc1,"Stromelysin-2 (Homo sapiens, UniProt P09238)",,,,623 ± 11
O=C(CN1C(=O)Cc2c([nH]c3ccc(Br)cc23)-c2ccc(Cl)cc21)Nc1nncs1,"Trypanothione synthetase (Trypanosoma cruzi, UniProt Q9GT49)",enzyme activity,,,~30000
Cc1cc(Nc2ccc(S(F)(F)(F)(F)F)cc2)n2nc(C)nc2n1,"DHODH (Homo sapiens, UniProt Q02127)","enzyme activity, inhibitor",,,> 50000
COc1ccc(-c2cc(OCC(=O)N(C)Cc3cccnc3C)nc(-n3nc(C)cc3C)n2)cc1,"LNPEP (Homo sapiens, UniProt Q9UIQ6)","oxytocin trimming, HPLC",,"30 min, 37 °C, limited by solubility, together with: oxytocin 40 µM",> 100000
CCc1cc2c(cc1N1CCC(N3CCOCC3)CC1)C(C)(C)c1[nH]c3cc(C#N)ccc3c1C2=O,NTRK2,"enzyme activity, inhibitor",,together with: 1 mM ATP,> 724
Cc1cccc(-c2nc(-c3ccc(C(=O)O)cc3)[nH]c2-c2ccncc2)c1,CSNK1E,inhibitor,,,1060 ± 108
Nc1nsc(C(=O)NCc2ccccn2)c1Cl,"Lysine--tRNA ligase, cytoplasmic","enzyme activity, inhibitor",,,> 100000
O=C(c1c[nH]cc1S(=O)(=O)Nc1ccc(C(F)(F)F)c(Cl)c1)N1CCC(F)(F)C1,DRD2,,,,> 100000
Cc1cccc(Nc2ccccc2C(=O)O)c1C,"UGT2B7 (Homo sapiens, UniProt P16662)","enzyme activity, inhibitor","human liver microsomes, 2% BSA",together with: zidovudine below Km,12000
Cc1[nH]c(C)c(S(=O)(=O)Nc2ccc(C(F)(F)F)c(Cl)c2)c1C(=O)N(C)CC(F)(F)F,DRD2,,,,> 100000
O=C(NC1CCC1)[C@H](Cc1c[nH]c2ccccc12)NC(=O)[C@H](CCCCNC(=S)NCc1cc(O)no1)NS(=O)(=O)c1cccc(F)c1,SIRT5,"enzyme activity, inhibitor",,,5900 ± 200
Cc1nn(C)c2ncc(C(=O)NCC3CC(Br)=NO3)c(Cl)c12 (stereo not drawn),"60 kDa heat shock protein, mitochondrial with HSP10",HSP60/10-mediated MDH refolding,,"30 min, preincubation before ATP, together with: denatured malate dehydrogenase",33000
CN1CCN(c2ccc(Nc3ncc4cc(C#N)c(=O)n(C5CCCC5)c4n3)cc2)CC1,"Cyclin-dependent kinase 5, with p35 (CDK5, Homo sapiens, UniProt Q00535)",,,,279
Fc1ccc(-c2nc(-c3c(F)cccc3Br)[nH]c2-c2ccncc2)cc1,CSNK1E,inhibitor,,,25.1 ± 2.6
Cc1[nH]c(C)c(S(=O)(=O)Nc2ccc(C(F)(F)F)c(Cl)c2)c1C(=O)N1CCC(C)(C)C1,DRD2,,,,> 100000
Cn1cnc(Cn2ccc3ccc(CNCc4[nH]c5ccccc5c4[C@H]4NC(=O)c5ccc(O)cc54)cc32)c1,"GTPase KRas, GppNHp; with RAF1 RBD (KRAS, Homo sapiens, UniProt P01116, Q61R)",HTRF,,,13400 ± 4700
